Assay results from different studies.
A part holds a random share of what one study measured.
Sequence of UniProt Q13976 (whole entry, looked up): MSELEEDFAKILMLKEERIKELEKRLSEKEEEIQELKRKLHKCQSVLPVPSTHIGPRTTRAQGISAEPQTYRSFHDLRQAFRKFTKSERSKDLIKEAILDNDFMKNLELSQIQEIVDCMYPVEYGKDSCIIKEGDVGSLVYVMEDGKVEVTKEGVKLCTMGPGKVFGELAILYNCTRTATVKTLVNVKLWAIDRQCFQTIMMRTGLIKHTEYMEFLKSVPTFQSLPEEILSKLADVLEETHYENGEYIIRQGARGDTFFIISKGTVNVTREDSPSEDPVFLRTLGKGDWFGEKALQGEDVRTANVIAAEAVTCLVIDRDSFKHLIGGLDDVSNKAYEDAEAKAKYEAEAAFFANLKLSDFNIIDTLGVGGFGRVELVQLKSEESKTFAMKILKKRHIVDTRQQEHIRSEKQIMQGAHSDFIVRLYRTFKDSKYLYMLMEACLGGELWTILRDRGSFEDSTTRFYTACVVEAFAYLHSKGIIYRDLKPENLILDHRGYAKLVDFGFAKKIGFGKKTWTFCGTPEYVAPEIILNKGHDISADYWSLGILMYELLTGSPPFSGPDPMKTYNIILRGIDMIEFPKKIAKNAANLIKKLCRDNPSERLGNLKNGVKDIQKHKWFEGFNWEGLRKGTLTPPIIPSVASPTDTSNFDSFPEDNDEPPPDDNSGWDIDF
Sequence of UniProt Q8IY84 (whole entry, looked up): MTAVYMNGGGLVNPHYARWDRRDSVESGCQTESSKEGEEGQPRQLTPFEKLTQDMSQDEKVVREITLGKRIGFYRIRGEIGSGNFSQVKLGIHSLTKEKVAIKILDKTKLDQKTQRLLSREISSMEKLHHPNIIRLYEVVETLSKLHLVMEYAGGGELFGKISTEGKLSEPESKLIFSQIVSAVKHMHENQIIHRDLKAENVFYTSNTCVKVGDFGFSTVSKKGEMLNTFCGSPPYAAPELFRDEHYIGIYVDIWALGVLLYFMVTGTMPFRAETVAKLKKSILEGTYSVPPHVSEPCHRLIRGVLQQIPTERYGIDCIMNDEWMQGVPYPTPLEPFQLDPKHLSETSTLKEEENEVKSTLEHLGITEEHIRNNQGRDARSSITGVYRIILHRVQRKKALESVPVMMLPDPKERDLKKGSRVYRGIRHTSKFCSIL
Sequence of UniProt Q99759 (whole entry, looked up): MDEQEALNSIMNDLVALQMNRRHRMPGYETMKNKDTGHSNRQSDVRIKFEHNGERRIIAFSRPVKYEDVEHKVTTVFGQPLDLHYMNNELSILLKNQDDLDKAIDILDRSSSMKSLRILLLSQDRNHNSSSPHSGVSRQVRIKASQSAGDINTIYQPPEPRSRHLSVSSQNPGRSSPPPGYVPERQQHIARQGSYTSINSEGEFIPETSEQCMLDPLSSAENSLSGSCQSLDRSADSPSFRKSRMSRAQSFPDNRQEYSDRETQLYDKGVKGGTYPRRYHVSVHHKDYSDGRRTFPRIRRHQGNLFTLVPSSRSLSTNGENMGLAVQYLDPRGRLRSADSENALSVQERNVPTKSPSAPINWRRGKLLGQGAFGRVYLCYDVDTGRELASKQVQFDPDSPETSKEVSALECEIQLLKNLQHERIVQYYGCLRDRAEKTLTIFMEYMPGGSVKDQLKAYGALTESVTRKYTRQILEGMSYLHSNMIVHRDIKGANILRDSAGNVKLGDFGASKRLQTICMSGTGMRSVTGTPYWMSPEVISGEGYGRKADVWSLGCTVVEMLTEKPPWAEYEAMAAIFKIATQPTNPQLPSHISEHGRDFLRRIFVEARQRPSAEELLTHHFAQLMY
Sequence of UniProt Q9BVS4 (whole entry, looked up): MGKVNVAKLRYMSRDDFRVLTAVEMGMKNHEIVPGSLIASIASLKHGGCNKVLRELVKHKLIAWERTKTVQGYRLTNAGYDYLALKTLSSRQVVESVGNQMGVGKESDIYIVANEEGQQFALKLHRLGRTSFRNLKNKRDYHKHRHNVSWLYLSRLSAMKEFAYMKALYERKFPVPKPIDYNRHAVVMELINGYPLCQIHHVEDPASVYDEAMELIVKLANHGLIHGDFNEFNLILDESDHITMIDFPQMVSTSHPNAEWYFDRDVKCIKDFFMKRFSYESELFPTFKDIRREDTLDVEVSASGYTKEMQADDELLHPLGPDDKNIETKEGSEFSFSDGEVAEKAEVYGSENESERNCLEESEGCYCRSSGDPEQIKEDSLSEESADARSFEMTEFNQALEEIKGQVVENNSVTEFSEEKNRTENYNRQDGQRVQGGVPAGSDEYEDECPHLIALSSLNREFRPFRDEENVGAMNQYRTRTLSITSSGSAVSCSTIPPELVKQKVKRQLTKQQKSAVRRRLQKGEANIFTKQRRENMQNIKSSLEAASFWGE
Sequence of UniProt P07948 (whole entry, looked up): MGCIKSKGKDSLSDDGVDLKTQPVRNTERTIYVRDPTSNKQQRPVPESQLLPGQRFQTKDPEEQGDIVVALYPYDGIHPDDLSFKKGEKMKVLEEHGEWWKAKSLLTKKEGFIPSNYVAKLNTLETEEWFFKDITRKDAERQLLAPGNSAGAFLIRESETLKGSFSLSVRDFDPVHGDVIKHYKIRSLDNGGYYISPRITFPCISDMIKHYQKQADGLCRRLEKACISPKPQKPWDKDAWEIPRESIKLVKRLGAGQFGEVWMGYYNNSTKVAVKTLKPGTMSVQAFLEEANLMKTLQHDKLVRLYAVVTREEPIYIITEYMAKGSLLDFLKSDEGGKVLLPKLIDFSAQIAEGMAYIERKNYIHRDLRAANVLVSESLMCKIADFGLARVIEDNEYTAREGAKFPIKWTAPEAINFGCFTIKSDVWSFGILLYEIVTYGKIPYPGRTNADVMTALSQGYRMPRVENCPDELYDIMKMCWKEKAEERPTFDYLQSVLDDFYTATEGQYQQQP
Sequence of UniProt O94804 (whole entry, looked up): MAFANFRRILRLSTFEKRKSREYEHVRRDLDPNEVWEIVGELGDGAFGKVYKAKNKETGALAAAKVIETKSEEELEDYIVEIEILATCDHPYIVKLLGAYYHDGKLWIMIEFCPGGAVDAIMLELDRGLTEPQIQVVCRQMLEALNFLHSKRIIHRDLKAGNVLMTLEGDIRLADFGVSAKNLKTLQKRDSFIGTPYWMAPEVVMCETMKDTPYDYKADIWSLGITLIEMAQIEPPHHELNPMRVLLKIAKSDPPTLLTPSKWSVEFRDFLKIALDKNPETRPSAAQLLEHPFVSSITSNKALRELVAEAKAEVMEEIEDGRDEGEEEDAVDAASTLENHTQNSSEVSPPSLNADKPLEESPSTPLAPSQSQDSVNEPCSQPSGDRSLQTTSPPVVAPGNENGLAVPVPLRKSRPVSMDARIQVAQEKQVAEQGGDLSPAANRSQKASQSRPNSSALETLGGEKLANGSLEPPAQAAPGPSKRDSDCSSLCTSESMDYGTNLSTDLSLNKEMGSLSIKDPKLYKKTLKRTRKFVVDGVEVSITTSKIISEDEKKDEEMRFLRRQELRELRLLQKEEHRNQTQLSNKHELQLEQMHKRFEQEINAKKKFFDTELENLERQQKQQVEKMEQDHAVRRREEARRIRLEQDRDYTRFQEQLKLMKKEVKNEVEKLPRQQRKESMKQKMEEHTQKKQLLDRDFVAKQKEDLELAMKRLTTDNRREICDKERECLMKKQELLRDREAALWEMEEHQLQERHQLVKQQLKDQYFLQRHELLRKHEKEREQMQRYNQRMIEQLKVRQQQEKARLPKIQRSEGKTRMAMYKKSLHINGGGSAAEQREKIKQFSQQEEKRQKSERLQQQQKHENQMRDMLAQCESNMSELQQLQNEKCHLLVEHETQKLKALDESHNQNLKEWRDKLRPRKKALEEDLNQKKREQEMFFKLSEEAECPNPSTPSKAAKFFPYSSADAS

Set 1
Compound: Nc1nccc(-c2c(-c3ccc(F)cc3)ncn2C2CCNCC2)n1
Read-out: enzyme activity
Action: inhibitor
Concentration: 0.5 µM
Relative to: control
target | remaining activity
Serine/threonine-protein kinase 10 (STK10, Homo sapiens, UniProt O94804) | 90.3%
Tyrosine-protein kinase Lyn, isoform B (LYN, Homo sapiens, UniProt P07948) | 97.5%
cAMP-dependent protein kinase catalytic subunit alpha (PRKACA, Homo sapiens, UniProt P17612) | 83%
cGMP-dependent protein kinase 1, isoform beta (PRKG1, Homo sapiens, UniProt Q13976) | 88.2%
Serine/threonine-protein kinase Nek2 (NEK2, Homo sapiens, UniProt P51955) | 103%
Serine/threonine-protein kinase Chk2 (CHEK2, Homo sapiens, UniProt O96017) | 101%
Mitogen-activated protein kinase kinase kinase 3 (MAP3K3, Homo sapiens, UniProt Q99759) | 101%
Calcium/calmodulin-dependent protein kinase kinase 2 (CAMKK2, Homo sapiens, UniProt Q96RR4) | 110%

Set 2
Target: Sal-like protein 4, full length isoform A (SALL4, Homo sapiens, UniProt Q9UJQ4, residues 1-1053)
Sequence of UniProt Q9UJQ4 (whole entry, looked up): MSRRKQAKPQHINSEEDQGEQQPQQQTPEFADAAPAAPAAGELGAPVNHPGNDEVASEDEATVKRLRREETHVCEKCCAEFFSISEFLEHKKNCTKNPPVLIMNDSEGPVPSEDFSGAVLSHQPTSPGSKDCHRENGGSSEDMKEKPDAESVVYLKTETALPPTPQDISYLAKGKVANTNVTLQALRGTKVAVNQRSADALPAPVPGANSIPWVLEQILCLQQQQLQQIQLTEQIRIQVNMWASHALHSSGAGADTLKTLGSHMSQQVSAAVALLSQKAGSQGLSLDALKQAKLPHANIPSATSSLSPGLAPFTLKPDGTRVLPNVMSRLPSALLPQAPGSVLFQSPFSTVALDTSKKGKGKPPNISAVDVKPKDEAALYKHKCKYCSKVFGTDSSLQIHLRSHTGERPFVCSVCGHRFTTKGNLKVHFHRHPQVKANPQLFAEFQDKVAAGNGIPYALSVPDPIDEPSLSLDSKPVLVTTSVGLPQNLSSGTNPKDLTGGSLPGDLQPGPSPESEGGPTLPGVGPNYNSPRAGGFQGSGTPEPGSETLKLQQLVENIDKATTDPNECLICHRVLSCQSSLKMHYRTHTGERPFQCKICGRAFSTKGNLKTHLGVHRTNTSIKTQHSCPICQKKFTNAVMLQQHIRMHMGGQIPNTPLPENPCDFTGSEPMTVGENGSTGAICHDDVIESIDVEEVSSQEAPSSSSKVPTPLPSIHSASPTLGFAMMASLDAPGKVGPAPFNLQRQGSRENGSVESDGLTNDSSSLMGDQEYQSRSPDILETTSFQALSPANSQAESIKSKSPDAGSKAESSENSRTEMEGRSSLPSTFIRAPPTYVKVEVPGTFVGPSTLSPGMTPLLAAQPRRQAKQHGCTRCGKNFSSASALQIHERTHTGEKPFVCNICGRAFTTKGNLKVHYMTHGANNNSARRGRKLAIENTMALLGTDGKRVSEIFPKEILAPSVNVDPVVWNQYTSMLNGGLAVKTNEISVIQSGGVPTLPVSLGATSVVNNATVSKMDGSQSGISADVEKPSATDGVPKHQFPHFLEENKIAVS
Technique: universal PBM
Molecule type: double-stranded DNA, one strand shown
Medium: in vitro
Concentration: 600 nM
Setting: 8-mer, flanks averaged, mean of replicates
Reading: higher = stronger binding
Strand | E-score
CGAGGGAC | -0.359
AGTAGTAA | 0.25
CCCCGACA | -0.109
AGGAGAAG | -0.0453
CCGGTGTA | -0.208
GACCATGC | -0.12
CATGTAAC | 0.193
AGCATGAG | -0.0671

Set 3
SMILES: CC(=O)c1c(NS(C)(=O)=O)c2cc(-c3ccc(Cl)cc3)c(-c3ccc(Cl)cc3Cl)nc2n(C)c1=O
Read-out: cell-free assay
Technique: competition with immobilised ligand
Concentration: 1 µM
target | remaining binding
Serine/threonine-protein kinase MAK (MAK, Homo sapiens, UniProt P20794) | 93%
Serine/threonine-protein kinase RIO2 (RIOK2, Homo sapiens, UniProt Q9BVS4) | 100%
Serine/threonine-protein kinase NIM1 (NIM1K, Homo sapiens, UniProt Q8IY84) | 81%
Serine/threonine-protein kinase tousled-like 2 (TLK2, Homo sapiens, UniProt Q86UE8) | 99%

Set 4
Target: Max dimerization protein 1, bHLH-zipper, MAX partner unstated (MXD1, Homo sapiens, UniProt Q05195, residues 56-136)
Technique: protein-binding microarray
Molecule type: double-stranded DNA, one strand shown
Medium: in vitro
Concentration: not given
Setting: k-mer, scored over probes, only values ≥0.25
Reading: higher = stronger binding
Residues (chain): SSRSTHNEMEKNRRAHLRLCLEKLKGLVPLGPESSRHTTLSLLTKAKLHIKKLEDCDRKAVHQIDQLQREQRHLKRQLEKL
Strand | E-score
AATCACGT | 0.414
CCCCTCCA | 0.341
ACGTGGGA | 0.417
CATGCCGG | 0.299
CAATGTGG | 0.3
CGCGTACA | 0.274
AGCGCATG | 0.404
CCCCATAC | 0.266

Excerpt of the above (set 2):
Strand | E-score
AGTAGTAA | 0.25
CCGGTGTA | -0.208
